Experimental data collected from several papers.
Every numbered part comes from another study and shows a few of its results, in no order. Several values in a cell are separate wells, animals, samples, runs or records.
Sequence of UniProt Q8CIP4 (whole entry, looked up): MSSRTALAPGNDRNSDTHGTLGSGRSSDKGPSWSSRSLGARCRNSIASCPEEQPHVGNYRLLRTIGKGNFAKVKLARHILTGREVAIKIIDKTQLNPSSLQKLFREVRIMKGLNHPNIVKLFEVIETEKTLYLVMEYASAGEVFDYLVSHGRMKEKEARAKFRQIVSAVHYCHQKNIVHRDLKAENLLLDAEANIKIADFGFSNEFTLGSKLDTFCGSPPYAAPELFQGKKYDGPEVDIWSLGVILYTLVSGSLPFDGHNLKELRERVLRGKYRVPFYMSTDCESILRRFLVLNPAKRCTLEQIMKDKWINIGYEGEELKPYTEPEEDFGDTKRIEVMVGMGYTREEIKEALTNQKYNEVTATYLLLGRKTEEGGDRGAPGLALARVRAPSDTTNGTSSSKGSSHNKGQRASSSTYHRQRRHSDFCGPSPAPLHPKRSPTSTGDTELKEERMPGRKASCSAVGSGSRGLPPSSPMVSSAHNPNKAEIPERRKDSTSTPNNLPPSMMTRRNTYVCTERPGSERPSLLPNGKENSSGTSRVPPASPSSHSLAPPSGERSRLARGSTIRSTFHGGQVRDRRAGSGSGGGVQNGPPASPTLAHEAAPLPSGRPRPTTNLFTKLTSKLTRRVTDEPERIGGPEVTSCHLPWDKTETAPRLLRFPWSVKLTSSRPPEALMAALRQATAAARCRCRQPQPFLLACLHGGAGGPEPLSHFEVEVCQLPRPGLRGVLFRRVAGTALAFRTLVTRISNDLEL
Sequence of UniProt P49841 (whole entry, looked up): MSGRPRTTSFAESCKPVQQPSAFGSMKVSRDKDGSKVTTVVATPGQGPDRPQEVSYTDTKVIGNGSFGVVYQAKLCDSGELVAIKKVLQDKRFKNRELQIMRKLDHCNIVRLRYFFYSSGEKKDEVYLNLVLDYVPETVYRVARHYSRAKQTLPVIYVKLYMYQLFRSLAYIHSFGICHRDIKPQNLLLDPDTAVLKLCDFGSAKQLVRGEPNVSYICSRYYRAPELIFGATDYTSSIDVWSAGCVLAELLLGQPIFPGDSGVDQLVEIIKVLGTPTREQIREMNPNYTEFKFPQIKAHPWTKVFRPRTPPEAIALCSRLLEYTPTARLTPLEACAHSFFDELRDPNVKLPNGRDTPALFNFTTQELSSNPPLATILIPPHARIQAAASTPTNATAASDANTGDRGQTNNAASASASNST
Sequence of UniProt P07949 (whole entry, looked up): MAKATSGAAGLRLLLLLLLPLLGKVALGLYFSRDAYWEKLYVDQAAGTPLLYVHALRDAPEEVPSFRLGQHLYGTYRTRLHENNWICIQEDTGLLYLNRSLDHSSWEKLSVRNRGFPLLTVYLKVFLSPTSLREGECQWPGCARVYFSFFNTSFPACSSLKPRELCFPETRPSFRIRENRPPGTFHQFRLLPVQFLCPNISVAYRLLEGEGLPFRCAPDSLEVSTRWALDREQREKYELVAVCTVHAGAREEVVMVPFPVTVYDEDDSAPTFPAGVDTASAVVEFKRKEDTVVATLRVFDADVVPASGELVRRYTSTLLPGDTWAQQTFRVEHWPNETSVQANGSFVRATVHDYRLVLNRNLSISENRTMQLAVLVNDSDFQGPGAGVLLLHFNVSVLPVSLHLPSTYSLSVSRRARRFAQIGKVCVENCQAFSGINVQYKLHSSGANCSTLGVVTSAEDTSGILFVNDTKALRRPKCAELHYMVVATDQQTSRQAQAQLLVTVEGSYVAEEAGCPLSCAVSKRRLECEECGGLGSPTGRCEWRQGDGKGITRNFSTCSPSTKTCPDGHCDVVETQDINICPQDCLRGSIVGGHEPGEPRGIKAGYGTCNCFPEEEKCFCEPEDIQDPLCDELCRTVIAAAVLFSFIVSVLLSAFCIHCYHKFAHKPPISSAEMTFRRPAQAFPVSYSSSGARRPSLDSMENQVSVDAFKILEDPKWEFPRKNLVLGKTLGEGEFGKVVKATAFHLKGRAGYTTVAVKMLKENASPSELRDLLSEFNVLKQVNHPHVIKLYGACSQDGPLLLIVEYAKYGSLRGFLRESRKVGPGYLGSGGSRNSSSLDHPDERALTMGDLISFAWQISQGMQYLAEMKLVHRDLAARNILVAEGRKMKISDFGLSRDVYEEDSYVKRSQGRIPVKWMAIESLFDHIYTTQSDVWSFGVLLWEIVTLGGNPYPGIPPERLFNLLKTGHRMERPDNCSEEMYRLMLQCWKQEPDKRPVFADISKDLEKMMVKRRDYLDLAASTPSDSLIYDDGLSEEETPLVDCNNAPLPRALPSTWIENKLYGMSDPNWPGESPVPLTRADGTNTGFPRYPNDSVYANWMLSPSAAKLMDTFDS
Sequence of UniProt P35626 (whole entry, looked up): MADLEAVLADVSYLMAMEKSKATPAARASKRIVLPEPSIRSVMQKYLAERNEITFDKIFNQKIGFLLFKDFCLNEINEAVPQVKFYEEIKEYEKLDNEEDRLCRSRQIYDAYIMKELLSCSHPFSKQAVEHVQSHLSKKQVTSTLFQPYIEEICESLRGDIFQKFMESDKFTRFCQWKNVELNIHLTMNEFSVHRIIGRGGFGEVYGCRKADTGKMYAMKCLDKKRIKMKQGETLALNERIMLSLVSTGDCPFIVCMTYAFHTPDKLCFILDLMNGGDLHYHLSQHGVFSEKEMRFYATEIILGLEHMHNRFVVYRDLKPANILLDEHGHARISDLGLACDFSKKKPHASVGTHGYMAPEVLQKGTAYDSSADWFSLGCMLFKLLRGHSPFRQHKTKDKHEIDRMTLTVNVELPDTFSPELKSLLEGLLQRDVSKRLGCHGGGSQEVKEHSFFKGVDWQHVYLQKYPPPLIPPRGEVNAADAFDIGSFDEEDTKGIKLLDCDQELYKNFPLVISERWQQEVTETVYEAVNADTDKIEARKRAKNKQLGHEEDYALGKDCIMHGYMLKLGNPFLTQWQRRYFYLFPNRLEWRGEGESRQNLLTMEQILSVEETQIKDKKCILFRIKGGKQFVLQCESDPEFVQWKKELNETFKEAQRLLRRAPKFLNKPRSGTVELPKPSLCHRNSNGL
Sequence of UniProt O14730 (whole entry, looked up): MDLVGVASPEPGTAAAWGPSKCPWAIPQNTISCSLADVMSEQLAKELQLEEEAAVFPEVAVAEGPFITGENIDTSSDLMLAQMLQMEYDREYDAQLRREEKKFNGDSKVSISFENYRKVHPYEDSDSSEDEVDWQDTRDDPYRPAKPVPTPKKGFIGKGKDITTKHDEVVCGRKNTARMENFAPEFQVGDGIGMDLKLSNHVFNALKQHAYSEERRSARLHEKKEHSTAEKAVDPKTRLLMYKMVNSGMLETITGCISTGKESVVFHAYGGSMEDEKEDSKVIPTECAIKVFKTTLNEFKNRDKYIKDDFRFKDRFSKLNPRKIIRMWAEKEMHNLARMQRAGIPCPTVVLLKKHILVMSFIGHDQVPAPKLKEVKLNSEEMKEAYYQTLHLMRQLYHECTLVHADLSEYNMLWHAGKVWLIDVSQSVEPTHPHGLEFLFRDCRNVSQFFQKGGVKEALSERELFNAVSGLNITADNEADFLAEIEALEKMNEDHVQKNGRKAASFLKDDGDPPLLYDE
Sequence of UniProt P10721 (whole entry, looked up): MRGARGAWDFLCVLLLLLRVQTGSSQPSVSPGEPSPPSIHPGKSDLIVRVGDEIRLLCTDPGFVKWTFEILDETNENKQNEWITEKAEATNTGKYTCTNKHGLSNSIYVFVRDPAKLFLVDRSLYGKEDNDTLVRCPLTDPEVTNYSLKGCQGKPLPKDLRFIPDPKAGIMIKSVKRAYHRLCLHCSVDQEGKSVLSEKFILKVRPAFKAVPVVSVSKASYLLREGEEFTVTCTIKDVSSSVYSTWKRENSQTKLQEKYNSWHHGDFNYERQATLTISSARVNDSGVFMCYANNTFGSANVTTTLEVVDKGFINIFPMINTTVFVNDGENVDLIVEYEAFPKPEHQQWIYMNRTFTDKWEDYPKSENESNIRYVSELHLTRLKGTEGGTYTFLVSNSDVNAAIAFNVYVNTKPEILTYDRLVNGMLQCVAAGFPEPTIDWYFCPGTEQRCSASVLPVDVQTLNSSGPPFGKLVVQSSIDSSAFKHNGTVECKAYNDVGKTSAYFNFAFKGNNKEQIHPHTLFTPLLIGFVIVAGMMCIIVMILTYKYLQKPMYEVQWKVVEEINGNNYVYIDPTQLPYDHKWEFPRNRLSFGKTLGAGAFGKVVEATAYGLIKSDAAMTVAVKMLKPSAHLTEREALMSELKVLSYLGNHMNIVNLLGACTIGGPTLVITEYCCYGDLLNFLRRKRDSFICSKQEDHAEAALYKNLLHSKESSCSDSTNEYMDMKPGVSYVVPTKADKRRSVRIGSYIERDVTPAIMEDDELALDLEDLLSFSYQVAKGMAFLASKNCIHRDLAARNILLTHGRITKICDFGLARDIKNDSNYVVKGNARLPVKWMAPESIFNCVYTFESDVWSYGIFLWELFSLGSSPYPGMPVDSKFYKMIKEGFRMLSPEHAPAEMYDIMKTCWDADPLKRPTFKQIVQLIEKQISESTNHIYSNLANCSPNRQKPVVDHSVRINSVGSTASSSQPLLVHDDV

Set 1
Target: Beta-1 adrenergic receptor (ADRB1, Homo sapiens, UniProt P08588)
Sequence of UniProt P08588 (whole entry, looked up): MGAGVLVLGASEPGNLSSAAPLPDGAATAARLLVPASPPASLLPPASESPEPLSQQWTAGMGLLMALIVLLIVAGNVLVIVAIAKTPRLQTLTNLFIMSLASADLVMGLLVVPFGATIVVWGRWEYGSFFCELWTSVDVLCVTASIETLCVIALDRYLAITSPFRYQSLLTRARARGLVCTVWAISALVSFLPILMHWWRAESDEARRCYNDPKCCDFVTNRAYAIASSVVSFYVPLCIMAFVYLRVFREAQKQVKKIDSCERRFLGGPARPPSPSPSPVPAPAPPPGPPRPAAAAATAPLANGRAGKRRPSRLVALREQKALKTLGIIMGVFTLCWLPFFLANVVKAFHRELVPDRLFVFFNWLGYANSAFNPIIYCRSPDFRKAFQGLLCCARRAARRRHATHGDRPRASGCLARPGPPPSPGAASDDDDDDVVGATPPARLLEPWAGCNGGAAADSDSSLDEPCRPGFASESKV
Action: antagonist
Compound	IC50
O=C(NCCc1ccc(O)c(O)c1)C12CC3CC(CC(C3)C1)C2	≥ 100 µM
OC(COc1ccccc1CNCC1CCOCC1)CN1CCSCC1 (centres unmarked)	≥ 100 µM
Cc1nc2c(c(N[C@@H]3COCC[C@H]3OCc3ccccn3)n1)CCC2	≥ 100 µM
CCOc1ccc(C(=O)N2CCN(c3ccccc3OC)CC2)cc1	≥ 100 µM

Set 2
Cell line: mouse MPNST tumor cells
Method: high-content nuclear imaging
Item: cell number
Tested at: 10 µM
Time: 12 h
Setting: mean of 2 replicates
Reference: plate mean
Direction: higher = more cells
Structure (SMILES)	nuclei count
O=C(O)c1cc([N+](=O)[O-])ccc1NCCCc1ccccc1	0.45 z-score
CN1CCN(c2ccc(-c3cccc(CN4CCOCC4)c3)cc2NC(=O)c2c[nH]c(=O)cc2C(F)(F)F)CC1	0.491 z-score and 0.764 z-score
CN(C)[C@@H]1CCc2[nH]c3ccc(NC(=O)c4ccc(F)cc4)cc3c2C1	5.46 z-score
COc1ccc(N2CCN(C(CNC(=O)C3CCCCC3)c3ccc4c(c3)OCO4)CC2)cc1 (centres unmarked)	0.57 z-score
CC(=O)O[C@H]1C[C@@H]2CC[C@@H]3[C@H](CC[C@@]4(C)[C@H]3C[C@H]([N+]3(C)CCCCC3)[C@@H]4OC(C)=O)[C@@]2(C)C[C@@H]1N1CCCCC1	0.274 z-score and 0.554 z-score
COc1ccc2c(c1)c(CC(=O)O)c(C)n2C(=O)c1ccc(Cl)cc1	2.82 z-score

Set 3
Compound: CCCCN(CCCC)C(=O)CN1C[C@@H](c2cc(OC)c3c(c2)OCO3)[C@H](C(=O)O)[C@H]1CC(C)(C)CCC
Observed: cell-free assay
Method: competition with immobilised ligand
Tested at: 1 µM
target	remaining binding [%]
RET (Homo sapiens, UniProt P07949)	86.1
GRK2 (Homo sapiens, UniProt P25098)	97.8
ACVR2A (Homo sapiens, UniProt P27037)	85.1
RIOK3 (Homo sapiens, UniProt O14730)	100
Tyrosine-protein kinase ABL1, phosphorylated (ABL1, Homo sapiens, UniProt P00519, M351T)	100
KIT (Homo sapiens, UniProt P10721)	100
CSNK1G1 (Homo sapiens, UniProt Q9HCP0)	100
GSK3B (Homo sapiens, UniProt P49841)	100
Tyrosine-protein kinase ABL1, phosphorylated (ABL1, Homo sapiens, UniProt P00519, Q252H)	94.6
GRK3 (Homo sapiens, UniProt P35626)	87.6
CAMK1D (Homo sapiens, UniProt Q8IU85)	94.4
CDK13 (Homo sapiens, UniProt Q14004)	100
PRKX (Homo sapiens, UniProt P51817)	87.7

Set 4
SMILES: COc1cc(C(=O)N2CCC(N3CCN(C)CC3)CC2)ccc1Nc1ncc2c(n1)N(C)c1ccccc1C(=O)N2C
target	test	system	conditions	inhibition
HGK (MAP4K4, human)	probe labelling, KiNativ, item: Lys1 site peptide	PBMC lysate (human)	1 µM, added: ADP acyl-phosphate probe	-7.5% and 0.6%
HPK1 (human)	probe labelling, KiNativ ATP probe	human PBMC lysate	concentration not given, LYS1 labelled site	5.7%
MARK3 and MARK4 (mouse)	probe labelling, KiNativ, item: EVAIkIIDK peptide, LYS1 site	brain tissue lysate (mouse)	0.1 µM, added: ATP acyl-phosphate probe	1.2%
MAP/microtubule affinity-regulating kinase 4 (Mus musculus, UniProt Q8CIP4)	KiNativ profiling	mouse brain lysate	0.1 µM, LYS1 site, added: ADP acyl phosphate probe	1.1%
STLK5 (mouse)	probe labelling, inhibitor, KiNativ ActivX ADP probe	mouse brain lysate	0.1 µM, activation loop peptide	-14.2%
MAP3K2 and MAP3K3 (mouse)	probe labelling, KiNativ, item: DIkGANILR peptide, LYS2 site	brain tissue lysate (mouse)	0.1 µM, added: ATP acyl-phosphate probe	-1.7%

Repeated from above (set 3):
target	remaining binding [%]
Tyrosine-protein kinase ABL1, phosphorylated (ABL1, Homo sapiens, UniProt P00519, Q252H)	94.6
GRK3 (Homo sapiens, UniProt P35626)	87.6
CAMK1D (Homo sapiens, UniProt Q8IU85)	94.4
CDK13 (Homo sapiens, UniProt Q14004)	100
